Assay results of several laboratories.
Each line is one published result; not all experiments were run side by side. ± marks the error that the study gave.
Method: steady-state kinetics
B1: enzyme (Brachypodium distachyon, UniProt I1HY48); chain MGSIASEERTVTGWAARDADGHLSPYTYTLRKTGPEDVLVKVLYCGICHTDIHQAKNHLGASKYPMVPGHEVVGEVVEVGGEVSKYSAGDVVGVGVIVGCCRECRPCKASVEQYCNKRIWSYNDVYTDGRPTQGGFSSAMVVDQKFVVRIPAGLAPEQAAPLLCAGVTVYSPLKHFGLMSPGLRGGILGLGGVGHMGVKVAKSMGHHVTVISSSGKKRAEAMDDLGADAYLVSSDADQMAAAADSLDYVIDTVPVKHPLEPYLSLLKMDGKLVLMGVIGEPLSFVSPMVMLGRKSITGSFIGSMEETEEVLKFCVEKGLTSQIEVVKMDYLNEALERLERNDVRYRFVVDVAGSKIEDAA
B2: enzyme (Halomonas elongata, UniProt E1V931); chain MKIAVPKEIKNHEYRVALTPSGARELVGRGHDVIVQAAAGEGAGFSDADFEAAGARLEADVAKLWDDAELILKVKEPQAEEVARLSAGQTLFTYLHLAAEESLTKGLLDSGATCIAYETITAPEGGLPLLAPMSTVAGRMAVQAGAHSLEKAQGGAGILLPGVPGVAPARVTVIGGGVVGENAARMALGLGAEVTVLDKSIPRLETLDDRYQGRMKTVFSTADALEEAVRESDLIIGAVLVPGAAAPKLITRDMLSDMKPGSVLVDVAIDQGGCFETSKPTTHAEPTYVVDGVVHYCVANMPGAVARTSTQALTNATLPFVVALADKGWQKALADDDHFAAGLNVHDGKLTYRAVAEAFGLEYVEAASLIG
B3: hutH (Acinetobacter baumannii, UniProt V5V8Q5); chain MELLIQPGKLTLADLRQAYLNPIKVKLDESASSAINASVACVEQIVNEGRTAYGINTGFGLLASTKIAPEDLEKLQRSLVLSHAAGVGEALDDAMVRLIILLKANSLARGFSGIRRKVIDALLALINAEVYPHIPLKGSVGASGDLAPLAHMSLVLLGESKARYKGEWLPAVEALKIAGLEPISLAAKEGLALLNGTQVSTAYALRGLFEAEDLFAAATVCGGLSVEAMLGSRAPFDARIHEVRGQRGQIDVAAAYRDLLTDSSEISRSHEECGKVQDPYSLRCQPQVMGACLTQIRQAAEVLEIEANAVSDNPLVFAEQGDVISGGNFHAEPVAMAADNLALAIAEIGSLSERRISMMMDRHMSQLPPFLVANGGVNSGFMIAQVTAAALASDNKALAHPASVDSLPTSANQEDHVSMAPNAGKRLWYMADNVRGILAVEWLGACQGLDFREGLKSSPKLEQARKILRDQVPYYSEDRFFAPDIEQASELLASGCLNELLIPKLLPSLSEV
B4: Mgst1 unactivated (Rattus norvegicus, UniProt P08011); chain ADLKQLMDNEVLMAFTSYATIILAKMMFLSSATAFQRLTNKVFANPEDCAGFGKGENAKKFLRTDEKVERVRRAHLNDLENIVPFLGIGLLYSLSGPDLSTALIHFRIFVGARIYHTIAYLTPLPQPNRGLAFFVGYGVTLSMAYRLLRSRLYL
B5: protein (Streptomyces coelicolor, UniProt P16544); chain MATQDSEVALVTGATSGIGLEIARRLGKEGLRVFVCARGEEGLRTTLKELREAGVEADGRTCDVRSVPEIEALVAAVVERYGPVDVLVNNAGRPGGGATAELADELWLDVVETNLTGVFRVTKQVLKAGGMLERGTGRIVNIASTGGKQGVVHAAPYSASKHGVVGFTKALGLELARTGITVNAVCPGFVETPMAASVREHYSDIWEVSTEEAFDRITARVPIGRYVQPSEVAEMVAYLIGPGAAAVTAQALNVCGGLGNY
B6: protein Y93P (Thermus thermophilus, UniProt Q5SKR5); chain MSAPKPFVIGIAGGTASGKTTLAQALARTLGERVALLPMDHYYKDLGHLPLEERLRVNYDHPDAFDLALYLEHAQALLRGLPVEMPVYDFRAPTRSPRRTPVRPAPVVILEGILVLYPKELRDLMDLKVFVDADADERFIRRLKRDVLERGRSLEGVVAQYLEQVKPMHLHFVEPTKRYADVIVPRGGQNPVALEMLAAKALARLARMGAA
B7: TcC (Trypanosoma cruzi, UniProt Q4DGA3); chain MPREYEFAEKILFTEEEIRTRIMEVAKRIADDYKGKGLRPYVNPLVLISVLKGSFMFTADLCRALSDFNVPVRMEFICVSSYGEGVTSSGQVRMLLDTRHSIEGHHVLIVEDIVDTALTLNYLYHMYFTRRPASLKTVVLLDKREGRRVPFSADYVVANIPNAFVIGYGLDYDDTYRELRDIVVLRPEVYAEREAARQKKQRAIGSADTDRDAKREFHSKY
B8: LdmS (Staphylococcus aureus, UniProt Q2FWC5); chain MTNNGNEPNLTLSDLYDKDVVYTSRPSYISNPWLKPDEHQSNFLTGRELLIANQLPVIVHEASATDKLHQLFQVIGKEVPNSIYTFNNQQSYENLIKQLAHKENKKIYFQYIHDETILNQQYYALDKTLFVALNNKARIPEWTNGKFLPKRKVVKIEQFENEIKNWEFPLVIKPGDDLPTAGGYGVMICYHDADLQKAITRIKEATAETNSLIIEQKIEEKANYCVQFAYSESLGIQYLGAATQLTDKYGFYNGNENTTNVPEHVIEAGRQIMENGVNQGFFGVAGFDLLVDEDDNVYAIDLNFRQNGSTSMLLLANELNSGYQKFYSYHSKGDNTHFFNTILKYVKEGSLYPLSYYDGDWYGEDKVKSRFGCIWHGDSKETVLENERAFLAELEHY
B9: SUOX P184A (Homo sapiens, UniProt P51687); chain ESTHIYTKEEVSSHTSPETGIWVTLGSEVFDVTEFVDLHPGGPSKLMLAAGGPLEPFWALYAVHNQSHVRELLAQYKIGELNPEDKVAPTVETSDPYADDPVRHAALKVNSQRPFNAEPPPELLTENYITPNPIFFTRNHLPVPNLDPDTYRLHVVGAPGGQSLSLSLDDLHNFPRYEITVTLQCAGNRRSEMTQVKEVKGLEWRTGAISTARWAGARLCDVLAQAGHQLCETEAHVCFEGLDSDPTGTAYGASIPLARAMDPEAEVLLAYEMNGQPLPRDHGFPVRVVVPGVVGARHVKWLGRVSVQPEESYSHWQRRDYKGFSPSVDWETVDFDSAPSIQELPVQSAITEPRDGETVESGEVTIKGYAWSGGGRAVIRVDVSLDGGLTWQVAKLDGEEQRPRKAWAWRLWQLKAPVPAGQKELNIVCKAVDDGYNVQPDTVAPIWNLRGVLSNAWHRVHVYVSP
B10: ycjS (Escherichia coli, UniProt P77503); chain MKSAMTSSPLRVAIIGAGQVADKVHASYYCTRNDLELVAVCDSRLSQAQALAEKYGNASVWDDPQAMLLAVKPDVVSVCSPNRFHYEHTLMALEAGCHVMCEKPPAMTPEQAREMCDTARKLGKVLAYDFHHRFALDTQQLREQVTNGVLGEIYVTTARALRRCGVPGWGVFTNKELQGGGPLIDIGIHMLDAAMYVLGFPAVKSVNAHSFQKIGTQKSCGQFGEWDPATYSVEDSLFGTIEFHNGGILWLETSFALNIREQSIMNVSFCGDKAGATLFPAHIYTDNNGELMTLMQREIADDNRHLRSMEAFINHVQGKPVMIADAEQGYIIQQLVAALYQSAETGTRVEL
B11: SULT1A1 I89A (Homo sapiens, UniProt P50225); chain MELIQDTSRPPLEYVKGVPLIKYFAEALGPLQSFQARPDDLLISTYPKSGTTWVSQILDMIYQGGDLEKCHRAPIFMRVPFLEFKAPGAPSGMETLKDTPAPRLLKTHLPLALLPQTLLDQKVKVVYVARNAKDVAVSYYHFYHMAKVHPEPGTWDSFLEKFMVGEVSYGSWYQHVQEWWELSRTHPVLYLFYEDMKENPKREIQKILEFVGRSLPEETVDFVVQHTSFKEMKKNPMTNYTTVPQEFMDHSISPFMRKGMAGDWKTTFTVAQNERFDADYAEKMAGCSLSFRSEL
B12: protein E205A (Zea mays, UniProt A0A2H4PMI3); chain APFACVSRWLHTPSFATVSPQEVSGSSPAEVQNFVQGSWTASANWNWIVDPLNGDKFIKVAEVQGTEIKSFMESLSKCPKHGLHNPLKAPERYLMYGDISAKAAHMLGQPTVLDFFAKLIQRVSPKSYQQALAEVQVSQKFLENFCGDQVRFLARSFAVPGNHLGQRSNGYRWPYGPVAIITPFNFPLAIPLLQLMGALYMGNKPVLKVDSKVSIVMEQMIRLLHDCGLPAEDMDFINSDGAVMNKLLLEANPKMTLFTGSSRVAEKLAADLKGRVKLEDAGFDWKILGPDVQEVDYVAWVCDQDAYACSGQKCSAQSVLFMHKNWSSSGLLEKMKKLSERRKLEDLTIGPVLTVTTEAMIEHMNNLLKIRGSKVLFGGEPLANHSIPKIYGAMKPTAVFVPLEEILKSGNFELVTKEIFGPFQVVTEYSEDQLELVLEACERMNAHLTAAIVSNDPLFLQDVLGRSVNGTTYAGIRARTTGAPQNHWFGPAGDPRGAGIGTPEAIKLVWSCHREIIYDVGPVPESWALPSAT
UniProt Q9UNA4, sequence (whole entry, looked up): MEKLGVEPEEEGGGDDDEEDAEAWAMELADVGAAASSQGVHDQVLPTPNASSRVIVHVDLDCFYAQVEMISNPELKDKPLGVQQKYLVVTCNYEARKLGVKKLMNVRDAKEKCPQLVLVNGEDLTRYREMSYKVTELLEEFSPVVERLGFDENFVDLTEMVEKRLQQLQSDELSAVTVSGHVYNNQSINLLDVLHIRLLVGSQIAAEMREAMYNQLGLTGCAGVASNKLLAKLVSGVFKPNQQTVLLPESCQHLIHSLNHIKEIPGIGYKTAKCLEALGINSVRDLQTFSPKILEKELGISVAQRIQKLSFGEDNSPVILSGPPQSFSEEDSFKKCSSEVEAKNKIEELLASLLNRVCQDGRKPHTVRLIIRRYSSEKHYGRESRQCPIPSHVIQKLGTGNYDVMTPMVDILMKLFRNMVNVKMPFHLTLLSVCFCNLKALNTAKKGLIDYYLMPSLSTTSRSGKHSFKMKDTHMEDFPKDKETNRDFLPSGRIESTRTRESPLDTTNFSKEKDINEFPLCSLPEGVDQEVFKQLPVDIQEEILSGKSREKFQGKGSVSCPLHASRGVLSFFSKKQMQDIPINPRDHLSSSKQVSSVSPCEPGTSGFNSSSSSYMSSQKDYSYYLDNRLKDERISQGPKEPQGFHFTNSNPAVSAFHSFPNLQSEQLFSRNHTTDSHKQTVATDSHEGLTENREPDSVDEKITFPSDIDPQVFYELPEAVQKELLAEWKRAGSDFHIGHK
UniProt Q29437, sequence (whole entry, looked up): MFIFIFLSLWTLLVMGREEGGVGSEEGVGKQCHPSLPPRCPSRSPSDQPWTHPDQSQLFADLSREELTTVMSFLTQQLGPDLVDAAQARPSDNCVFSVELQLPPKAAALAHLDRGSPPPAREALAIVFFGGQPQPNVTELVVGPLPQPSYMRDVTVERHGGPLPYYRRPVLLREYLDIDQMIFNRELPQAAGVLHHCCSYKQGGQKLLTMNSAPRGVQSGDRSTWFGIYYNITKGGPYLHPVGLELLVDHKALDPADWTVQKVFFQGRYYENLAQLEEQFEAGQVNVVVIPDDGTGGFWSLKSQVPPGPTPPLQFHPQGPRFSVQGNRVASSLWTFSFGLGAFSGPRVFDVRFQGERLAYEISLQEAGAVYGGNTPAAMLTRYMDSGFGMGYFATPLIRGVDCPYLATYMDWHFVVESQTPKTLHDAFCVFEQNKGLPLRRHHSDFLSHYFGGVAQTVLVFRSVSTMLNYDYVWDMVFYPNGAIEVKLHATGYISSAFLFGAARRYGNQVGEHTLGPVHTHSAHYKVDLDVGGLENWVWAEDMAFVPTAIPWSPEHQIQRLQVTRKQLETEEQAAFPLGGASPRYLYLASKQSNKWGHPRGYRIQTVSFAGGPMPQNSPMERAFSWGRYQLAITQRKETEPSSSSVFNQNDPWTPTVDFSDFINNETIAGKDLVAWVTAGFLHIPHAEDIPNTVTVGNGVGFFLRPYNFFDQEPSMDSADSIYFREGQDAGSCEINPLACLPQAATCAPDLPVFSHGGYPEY

`protein (Streptomyces glaucescens, UniProt B0B0T9)` has a kcat of 0.0178 ± 0.00467 s⁻¹ (Cc1cn([C@H]2C[C@H](O)[C@@H](COP(=O)(O)OP(=O)(O)O[C@H]3O[C@H](C)[C@@H](N)[C@H](O)[C@H]3O)O2)c(=O)[nH]c1=O; pH 7.5, 30 °C, apparent, together with: maltose 1 mM).
`POLI (Homo sapiens, UniProt Q9UNA4)` gave a kcat of 0.00172 ± 5e-05 s⁻¹ (Cc1cn([C@H]2C[C@H](O)[C@@H](COP(=O)(O)OP(=O)(O)OP(=O)(O)O)O2)c(=O)[nH]c1=O; pH 8, 37 °C, misinsertion opposite dT, together with: Mg2+).
`B1 (enzyme)` gave a kcat of 38.2 s⁻¹ (NC(=O)C1=CN([C@@H]2O[C@H](COP(=O)(O)OP(=O)(O)OC[C@H]3O[C@@H](n4cnc5c(N)ncnc54)[C@H](OP(=O)(O)O)[C@@H]3O)[C@@H](O)[C@H]2O)C=CC1; pH 6.25, 23 °C, cofactor varied).
With `B2 (enzyme)` the kcat was 1.7 s⁻¹ (NC(=O)c1ccc[n+]([C@@H]2O[C@H](COP(=O)(O)OP(=O)(O)OC[C@H]3O[C@@H](n4cnc5c(N)ncnc54)[C@H](O)[C@@H]3O)[C@@H](O)[C@H]2O)c1; pH 10, 25 °C, cofactor varied).
`B3 (hutH)` gave a kcat of 0.15 ± 0.01 s⁻¹ (N[C@@H](Cc1c[nH]cn1)C(=O)O; pH 7.5, KCl 100 mM, together with: Zn).
The kcat of `B4 (Mgst1 unactivated)` is reported as 0.016 ± 0.001 s⁻¹ (CC(=O)c1ccc(Cl)c([N+](=O)[O-])c1; pH 6.5, 5 °C, potassium phosphate 0.1 M, unactivated enzyme, together with: GSH 5 mM).
With `B5 (protein)` the kcat was 0.24 ± 0.01 s⁻¹ (O[C@H]1CCCc2ccccc21; pH 7.4, phosphate 400 mM, NADPH 250 µM printed, together with: NADP+, reverse reaction).
The kcat of `B6 (protein Y93P)` is reported as 4.6 ± 0.9 s⁻¹ (Nc1ccn([C@@H]2O[C@H](CO)[C@@H](O)[C@H]2O)c(=O)n1; pH 7.2, 25 °C, KCl 100 mM, together with: ATP 100–200 µM).
`B7 (TcC)` has a kcat of 31 ± 1 s⁻¹ (O=P(O)(O)OC[C@H]1O[C@H](OP(=O)(O)OP(=O)(O)O)[C@H](O)[C@@H]1O; pH 8.3, 37 °C, GMP biosynthesis, apparent, together with: Gua 100 µM).
For `B8 (LdmS)`, the kcat was 48 ± 1 s⁻¹ (Nc1ncnc2c1ncn2[C@@H]1O[C@H](COP(=O)(O)OP(=O)(O)OP(=O)(O)O)[C@@H](O)[C@H]1O; pH 8, 37 °C, together with: L-Asp 50 mM, L-Met 10 mM, MgCl2 5 mM).
The kcat of `B9 (SUOX P184A)` is reported as 39 ± 2 s⁻¹ (O=S(O)O; pH 8, 25 °C, together with: oxidized cyt c 400 µM).
`enzyme (Mus musculus, UniProt P08680)` has a kcat of 0.25 ± 0.004 s⁻¹ (CC(C)(COP(=O)(O)OP(=O)(O)OC[C@H]1O[C@@H](n2cnc3c(N)ncnc32)[C@H](O)[C@@H]1OP(=O)(O)O)[C@@H](O)C(=O)NCCC(=O)NCCSC(=O)CCC(=O)O; pH 7.5, 37 °C).
The kcat of `B10 (ycjS)` is reported as 19 ± 1 s⁻¹ (CO[C@@H]1O[C@H](CO)[C@@H](O)C(=O)[C@H]1O; pH 7, 30 °C, together with: NADH 0.3 mM).
`α-amino ester hydrolase (Xanthomonas campestris, UniProt Q8P8K4)` gave a kcat of 982 s⁻¹ (COC(=O)[C@H](N)c1ccccc1; pH 7, 25 °C, phosphate 100 mM).
`Plasma amine oxidase (Bos taurus, UniProt Q29437)` gave a kcat of 0.69 ± 0.01 s⁻¹ (C[N+](C)(C)CCOc1ccc2cc(CN)ccc2c1; pH 7.2, 30 °C).
`B11 (SULT1A1 I89A)` has a kcat of 0.9 s⁻¹ (C[C@]12CC[C@@H]3c4ccc(O)cc4CC[C@H]3[C@@H]1CC[C@@H]2O; pH 7.2, 25 °C, together with: PAPS 0.060–1.5 µM).
The kcat of `B12 (protein E205A)` is reported as 0.53 ± 0.02 s⁻¹ (O=CCCCC(=O)O; pH 7.5, 30 °C, substrate inhibition, together with: NAD+ 3.0 mM).
With `enzyme (Plasmodium falciparum, UniProt Q8ILK1)` the kcat was 0.0142 ± 0.00133 s⁻¹ (C[S+](CC[C@H](N)C(=O)[O-])C[C@H]1O[C@@H](n2cnc3c(N)ncnc32)[C@H](O)[C@@H]1O; 37 °C).
